Experimental data pooled from the literature.
Protocols differ between the studies behind these lines.

CCCCCCCCCCCCCCCCCCn1cc(CN(CCC(=O)NCCN(CCC(=O)NCCN(CCC(=O)NCCN(C)C)CCC(=O)NCCN(C)C)CCC(=O)NCCN(CCC(=O)NCCN(C)C)CCC(=O)NCCN(C)C)CCC(=O)NCCN(CCC(=O)NCCN(CCC(=O)NCCN(C)C)CCC(=O)NCCN(C)C)CCC(=O)NCCN(CCC(=O)NCCN(C)C)CCC(=O)NCCN(C)C)nn1 — MIC (Vibrio cholerae; LB broth microdilution; 18 h): 6 µg/mL
Nc1ccccc1C(=O)OCC#CCOC(=O)c1ccccc1N — MIC (Pichia kudriavzevii; microbial growth, broth dilution; ATCC6258): > 128 µg/mL
Cc1ccc(CNC(=O)C(=O)c2c(C)nc3ccc(C)cn23)cc1 — MIC (Mycobacteroides abscessus; ATCC 19977; 72 h): > 128 µM
CN[C@@H]1[C@H](O)[C@H](NC)[C@H]2O[C@]3(O)[C@H](O[C@@H]2[C@H]1O)O[C@H](C)C[C@H]3NC(=O)Cc1cscn1 — MIC (Streptococcus pyogenes; microbial growth, broth dilution; ATCC700294): 6.25 µg/mL
CO[C@H]1/C=C/O[C@@]2(C)Oc3c(C)c(O)c4c(c3C2=O)C2=NC3(CCN(CC(C)C)CC3)NC2=C(NC(=O)/C(C)=C\C=C\[C@H](C)[C@H](O)[C@@H](C)[C@@H](O)[C@@H](C)[C@H](OC(=O)c2cccnc2)[C@@H]1C)C4=O — MIC (Mycobacteroides abscessus; RFB-R1 rifamycin-resistant; 90% growth inhibition): > 100 µM
Cc1ccc(-c2nc3ccc(C)cn3c2CC(=O)NCc2ccc(N(C)C)cc2)cc1 — MIC (Mycobacterium kansasii; microbial growth; 6 days): 48.1 µM
CN[C@H](CC(C)C)C(=O)N[C@H]1C(=O)N[C@@H](CC(N)=O)C(=O)N[C@H]2C(=O)N[C@H]3C(=O)N[C@H](C(=O)N[C@H](C(=O)O)c4cc(O)cc(O)c4-c4cc3ccc4O)[C@H](O)c3ccc(c(Cl)c3)Oc3cc2cc(c3O[C@@H]2O[C@H](CO)[C@@H](O)[C@H](O)[C@H]2O[C@H]2C[C@](C)(N)[C@H](O)[C@H](C)O2)Oc2ccc(cc2Cl)[C@H]1O — MIC (Salmonella enterica; microbial growth, broth dilution; CHOLERAESUIS): 32 µM
O=C(c1ccccc1O)c1[nH]c(Cl)c(Cl)c1-n1c(C(=O)c2ccccc2O)cc(Cl)c1Cl — MIC (Vibrio cholerae; El Tor): > 64 µM
CN[C@@H]1[C@H](O)[C@H](NC)[C@H]2O[C@]3(O)[C@H](O[C@@H]2[C@H]1O)O[C@H](C)C[C@H]3NC(=O)Cc1ccc(Cl)cn1 — MIC (Mycobacteroides abscessus; microbial growth; ATCC19977): 50 to 100 µg/mL
Cc1ccc2nc(C)c(C(=O)NCc3ccccc3)n2c1 — MIC (Mycobacterium avium; microbial growth; 6 days): 15.7 µM
C#CCNC(=O)C(C)(C)O/N=C(\C(=O)N[C@@H]1C(=O)N(S(=O)(=O)O)[C@H]1C)c1csc(N)n1 — MIC (Salmonella enterica; microbial growth, agar dilution; TYPHI): 4 µg/mL
CO[C@H]1O[C@H](COC(c2ccccc2)(c2ccccc2)c2ccccc2)[C@@H](OS(=O)(=O)c2ccccc2)[C@H](OS(=O)(=O)c2ccccc2)[C@H]1OS(=O)(=O)c1ccccc1 — MIC (Salmonella enterica; microbial growth, broth dilution; TYPHI): 1 µg/mL
CN[C@@H]1[C@H](O)[C@H](NC)[C@H]2O[C@]3(O)[C@H](O[C@@H]2[C@H]1O)O[C@H](C)C[C@H]3NC(=O)Cc1ccc(F)cn1 — MIC (Proteus vulgaris; microbial growth, broth dilution; ATCC33420): > 200 µg/mL
CO[C@H]1/C=C/O[C@@]2(C)Oc3c(C)c(O)c4c(c3C2=O)C2=NC3(CCN(CC(C)C)CC3)NC2=C(NC(=O)/C(C)=C\C=C\[C@H](C)[C@H](O)[C@@H](C)[C@@H](O)[C@@H](C)[C@H](OC(=O)c2cccc(F)c2)[C@@H]1C)C4=O — MIC (Mycobacteroides abscessus; RFB-R1 rifamycin-resistant; 90% growth inhibition): > 100 µM
Cc1ccc2nc(C)c(C(=O)C(=O)NCc3ccccc3)n2c1 — MIC (Mycobacterium kansasii; microbial growth; 6 days): 63.4 µM
CN[C@@H]1[C@H](O)[C@H](NC)[C@H]2O[C@]3(O)[C@H](O[C@@H]2[C@H]1O)O[C@H](C)C[C@H]3NC(=O)Cc1ccccc1 — MIC (Streptococcus pyogenes; microbial growth, broth dilution; ATCC700294): 50 µg/mL

Repeated from above:
CN[C@@H]1[C@H](O)[C@H](NC)[C@H]2O[C@]3(O)[C@H](O[C@@H]2[C@H]1O)O[C@H](C)C[C@H]3NC(=O)Cc1cscn1 — MIC (Streptococcus pyogenes; microbial growth, broth dilution; ATCC700294): 6.25 µg/mL
CO[C@H]1/C=C/O[C@@]2(C)Oc3c(C)c(O)c4c(c3C2=O)C2=NC3(CCN(CC(C)C)CC3)NC2=C(NC(=O)/C(C)=C\C=C\[C@H](C)[C@H](O)[C@@H](C)[C@@H](O)[C@@H](C)[C@H](OC(=O)c2cccnc2)[C@@H]1C)C4=O — MIC (Mycobacteroides abscessus; RFB-R1 rifamycin-resistant; 90% growth inhibition): > 100 µM
